Published values pooled from the literature.
Parts stem from different laboratories: compare values within a part only. Changes are numbered by the printed parent chain.

Study 1 — technique: DHFR PCA, deep sequencing; matrix: yeast; together with: (+)-ABA 1.4 µM; reference: wild-type fitted maximum; direction: higher = stronger binding
Target: ABI1, truncated, D143A, DHFR fusion (Arabidopsis thaliana)
Notes: methotrexate growth selection, single substitutions
Starting sequence: PYL1, truncated, DHFR fusion (Arabidopsis thaliana); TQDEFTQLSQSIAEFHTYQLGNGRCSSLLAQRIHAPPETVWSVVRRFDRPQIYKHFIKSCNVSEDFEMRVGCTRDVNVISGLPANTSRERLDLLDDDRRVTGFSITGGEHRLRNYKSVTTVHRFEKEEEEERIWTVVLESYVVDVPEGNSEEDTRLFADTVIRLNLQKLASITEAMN; partner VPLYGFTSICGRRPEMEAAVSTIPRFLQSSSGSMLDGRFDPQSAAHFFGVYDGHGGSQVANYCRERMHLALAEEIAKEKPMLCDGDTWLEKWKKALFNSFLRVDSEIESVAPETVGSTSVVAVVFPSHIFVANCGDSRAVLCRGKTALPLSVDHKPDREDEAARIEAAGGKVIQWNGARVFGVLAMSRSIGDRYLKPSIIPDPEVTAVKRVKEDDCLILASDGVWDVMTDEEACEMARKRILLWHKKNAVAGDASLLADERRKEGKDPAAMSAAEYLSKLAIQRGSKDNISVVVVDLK
Variant | relative binding score [%]
R32H | 46.5
E4Q | 46.7
I162M | 7.72
D92F | 6.89
E151R | 38
F66V | 22.1
E174P | 1.7
E38G | 10.1
K126L | 61.5
A158I | 66
L169P | 4.22
R132P | 77.3
Y53E | -2
E174V | 10.6
H110N | 68.1
S11C | 69

Study 2 — target: CCND3, cyclin fold, Cln2 fusion (human); technique: yeast growth competition, sequencing; matrix: yeast; notes: weak parent motif; reference: not given; direction: higher = stronger binding
Starting sequence: CDC25A docking peptide (human); PPHRRRLLFACSP
Variant | normalised enrichment score
S12D | 0.0908
S12V | 0.156
R4T | 0.151
R5C | 0.101
R6V | 0.182
A10W | 0.165
S12R | 0.16
P13S | 0.0981
A10G | 0.156
S12K | 0.101
P13R | 0.0928
P2L | 0.0499
R5W | 0.0936
R6Y | 0.0584
S12T | 0.102
L7M | 0.115
F9E | 0.109
A10H | 0.108

Study 3 — technique: universal PBM; form: double-stranded DNA, one strand shown; matrix: in vitro; concentration: not given; direction: higher = stronger binding
Target: Sal-like protein 4, full length isoform B (SALL4, Homo sapiens, UniProt Q9UJQ4-2, residues 1-616)
Notes: 8-mer, flanks averaged, mean of replicates
Residues (chain): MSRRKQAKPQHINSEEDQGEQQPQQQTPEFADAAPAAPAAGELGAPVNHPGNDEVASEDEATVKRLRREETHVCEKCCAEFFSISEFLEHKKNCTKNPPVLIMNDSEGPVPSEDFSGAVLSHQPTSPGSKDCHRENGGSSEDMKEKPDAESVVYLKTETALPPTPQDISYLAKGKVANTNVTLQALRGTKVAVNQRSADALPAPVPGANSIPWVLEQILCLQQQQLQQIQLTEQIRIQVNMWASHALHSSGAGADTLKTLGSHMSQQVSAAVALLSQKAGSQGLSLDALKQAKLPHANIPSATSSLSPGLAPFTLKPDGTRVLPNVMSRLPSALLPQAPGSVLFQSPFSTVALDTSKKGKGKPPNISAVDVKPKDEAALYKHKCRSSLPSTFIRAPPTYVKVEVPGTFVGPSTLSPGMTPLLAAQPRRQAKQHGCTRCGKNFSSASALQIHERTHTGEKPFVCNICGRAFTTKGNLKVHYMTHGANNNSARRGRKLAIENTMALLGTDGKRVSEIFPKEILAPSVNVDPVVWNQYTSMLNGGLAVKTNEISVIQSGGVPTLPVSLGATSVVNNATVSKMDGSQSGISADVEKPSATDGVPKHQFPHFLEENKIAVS
Sequence | E-score
CCTAAAGG | -0.045
CCGGAGGA | -0.31
CTGCGGGA | -0.314
AGAAGCAG | -0.0581
CGATAATA | 0.339
ACGTGGTC | -0.226
ACACCGAG | -0.0814
CCAGCGGA | -0.348
ACTGTATG | 0.191
AAATGCTA | 0.243
AGGTCCCG | -0.248
ATTGTTTA | 0.343
CCTTCCAC | -0.0938
CGCGTGGC | -0.292
CCGATGCA | -0.2
ATTTAGGC | 0.109
ATACCGCG | -0.112
CATACCTA | 0.118
GGCCCCCC | -0.386
CCCCCGTC | -0.224
GGCGAACC | -0.313
CAGCTTCA | 0.0197
TCACTCAA | 0.0655
CCCCGGAA | -0.274
ATGTCATG | 0.212

Study 4 — technique: protein-binding microarray; form: double-stranded DNA, one strand shown; matrix: in vitro; concentration: 2540 nM top; notes: 60-bp whole probe; together with: salmon DNA 0.4 mg/ml; reference: random background probes; direction: higher = stronger binding; all sequences stand within: GCCTAGCAC … GTCTTGATTCGCTTGACGCTGCTG
Target: Interferon regulatory factor 3, full length, phosphomimetic (IRF3, Homo sapiens, UniProt Q14653, residues 1-427, S386D/S396D/S398D/S402D/T404D/S405D)
Residues (chain): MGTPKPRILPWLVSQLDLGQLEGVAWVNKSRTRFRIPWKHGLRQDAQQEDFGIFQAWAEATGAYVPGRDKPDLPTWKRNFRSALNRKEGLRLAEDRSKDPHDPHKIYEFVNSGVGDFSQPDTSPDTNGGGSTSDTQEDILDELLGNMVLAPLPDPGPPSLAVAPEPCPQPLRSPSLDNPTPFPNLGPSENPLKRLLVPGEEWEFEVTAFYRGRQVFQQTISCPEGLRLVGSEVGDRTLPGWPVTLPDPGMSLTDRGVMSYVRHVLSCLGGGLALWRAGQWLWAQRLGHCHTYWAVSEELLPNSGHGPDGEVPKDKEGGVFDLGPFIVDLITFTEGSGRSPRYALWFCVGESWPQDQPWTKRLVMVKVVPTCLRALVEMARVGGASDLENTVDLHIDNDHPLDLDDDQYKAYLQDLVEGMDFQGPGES
Sequence | fitted relative affinity [z-score]
TGTGCTTTCCTCGTGATGCTGTGCTAG | 0.98
TCACCTTTTAAGTTCTCACTGTGCTAG | 2.94
CACTCTTGCTTTTTAGATCGGTGCTAG | 1.98
TCAAGTTTCCATTTTCAACTGTGCTAG | 9.09
GACGATTTCCTTTTCCTGACGTGCTAG | 7.18
TCATCTCTGCTTGTGTCACTGTGCTAG | 0.728
TTAGGTAACCTTATCCTTTAGTGCTAG | 1.79
GACGATCTCTGTTTCGAGACGTGCTAG | 2.03
TTAGGTATCGACTAGCGGTTAGTGCTA | 0.0217
TTAGGACTGGACTAACGGTTAGTGCTA | -0.62
TTGGATATCGGGTTTCGATTAGTGCTA | 1.61
GACGGTTTTGGTATCGGGACGTGCTAG | 3.69
GACGGTATCCTACTGCTGACGTGCTAG | 2.68
GACGGTATCGGTTTCGGGAAGTGCTAG | 6.78
GTGAGTCCCACATCTCTGTCCGTGCTA | -0.285
TTGTAAATCTTTTTCCCTATGTGCTAG | 1.27
GACAATTTCAGTTCCGAGACGTGCTAG | 2.89
TTAGGTATCGGACTGGATTAGTGCTAG | 1.27
GACGAACTGAGACTGTAGACGTGCTAG | -0.098
TCAGTTTTCACTTTTCCACTGTGCTAG | 3.93
TTAGGTATCGGGTATCGGTTTGTGCTA | 2.9
TTAGGATCCCTTTTCCTTTAGTGCTAG | 7.38
GAGGGTCTCGGTTTCGGGACGTGCTAG | 3.07
TTAGGACTGGACTCTGGGTTAGTGCTA | -0.838
TTAGGGTTCGGTATCGGTTAGTGCTAG | 3.72

Study 5 — technique: competition protein-binding microarray; form: double-stranded DNA, one strand shown; matrix: in vitro; concentration: 2 µM; together with: Pho4 competitor, 0.05 µM; direction: higher = stronger binding; all sequences stand within: … GTCTTGATTCGCTTGACGCTGCTG
Target: Centromere-binding protein 1, full length, His-tagged (CBF1, Saccharomyces cerevisiae, UniProt P17106, residues 1-351)
Sequence of UniProt P17106 (whole entry, looked up): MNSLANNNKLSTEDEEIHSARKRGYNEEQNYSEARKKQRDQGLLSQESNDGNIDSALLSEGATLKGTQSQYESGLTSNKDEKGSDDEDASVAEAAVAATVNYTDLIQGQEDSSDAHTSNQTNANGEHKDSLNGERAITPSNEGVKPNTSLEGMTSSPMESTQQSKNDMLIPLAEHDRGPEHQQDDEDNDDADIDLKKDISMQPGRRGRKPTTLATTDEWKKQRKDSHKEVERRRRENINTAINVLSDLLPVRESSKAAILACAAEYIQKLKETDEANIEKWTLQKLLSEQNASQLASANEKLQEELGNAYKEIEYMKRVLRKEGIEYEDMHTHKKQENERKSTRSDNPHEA
Notes: whole 60-bp probe, lowest competitor level
Sequence | fluorescence intensity [a.u.]
AGGAAAACAAATGAATGCGTGCCGAAAGCGGAAAAT | 82.2
GAGACGAATGAAAAGCACGTGAAGTAACAAACTATT | 1650
TCAAGCTATGGGATGCGCGTGCTTTGCAACTGGCTA | 96
CATACCCAACCTTGGACTGTGGGTGAAGATATTTGT | 55.9
TGGCCGTATCGCTCCATACGAGCCAATCAGGGCCCC | 46.8
CTTTCCCGATCTTGACGGGTGGGTGTAGCACATTTG | 50.4
CGGGGTTAAGTTTTTCACGTGGGATGCTTGCAGCAG | 390
CTAACGAAGGTTTGGCGGGTGGGTGACAAGCCAAGT | 65.1
CGGGGTTAAGTTTGCTCTGTGGGTGGCTTGCAGCAG | 71.3
TTATACCACCATTGCCACGTTCACCAAACAATATGT | 78.2
CGTCCTAGTGATTGGGCGGTGGGTGCCATGAGGAAG | 73.5
AAATTACTAAGTTGGAACGTGGGTGACGCCGTATGA | 88.7
AAATTACTAAGTTGAGTGGTGGGTGACGCCGTATGA | 64.2
TGTAAATATATCCATCACGTGAAATTAGTGGCGAGG | 3320
CCGGATAATCTACATCATGTGGTACGTTAACGATGT | 562
ACTATGATATTATTCCATGTGTCGCAAAACCAGAAA | 96.5
CGGGGTTAAGTTTGCGGCGTGGGTGGCTTGCAGCAG | 65.1
TAACATTCTGTAGTTCATGTGTACTAAAAAAAAAAA | 128
GTCTTGTCTCATTGATCCGTGGGTGTCCCCACTTCA | 67.5
ACCTTGGTCCAAGGTCACGAGGAGCTGTCCAAGGTC | 641
CCGTTTCTACCAGTACACGTGTAGCCAATTTTATCG | 1450
GCAGATAGACGCTCGCCCGTGAGCCACTCAGGACGC | 58.5
CGTCCGAGAGCCCGCGACCTGATCCGACTTCAGGGT | 48.3

Study 6 — technique: protein binding microarray; form: double-stranded DNA, one strand shown; matrix: in vitro; concentration: not given; reference: not given; direction: higher = stronger binding
Target: Histone acetyltransferase KAT6A, winged helix 1, GST fusion (KAT6A, Homo sapiens, UniProt Q92794, residues 1-85)
Notes: 8-mer, flanks averaged, mean of 2 arrays, mostly near background
Construct (chain): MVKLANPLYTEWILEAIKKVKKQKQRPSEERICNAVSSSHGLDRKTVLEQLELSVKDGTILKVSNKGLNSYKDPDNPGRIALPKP
Sequence | E-score
CCAGCGTC | 0.0959
CAAAACGA | -0.0988
CTGTACGC | 0.203
CCACCATC | -0.103
GCCTGGGA | -0.0463
ACCGTTTC | 0.104
CGGTCTAA | 0.0562
CCCCACGC | 0.101
AACTTCAT | -0.188
CCTTCCGC | 0.261
CGGCTTTC | 0.34
CCCTGTCG | 0.0563
GTCAAAAC | 0.107
ATCCAGTG | -0.156
AAGCCAGA | -0.0736
AGAAACAA | -0.16
TCCCACGA | -0.0708
CATACTAG | -0.0858
GGCCACTA | 0.0316
AGATCCTC | -0.211
TCCTCTAA | -0.188
GAGGGCTA | -0.121
AGGCTCAC | -0.0012
GAGCCCAA | -0.212
CAAATCGC | 0.00302

Excerpt of the above (study 4):
Sequence | fitted relative affinity [z-score]
TTAGGTATCGACTAGCGGTTAGTGCTA | 0.0217
TTAGGACTGGACTAACGGTTAGTGCTA | -0.62
TTGGATATCGGGTTTCGATTAGTGCTA | 1.61
GACGGTTTTGGTATCGGGACGTGCTAG | 3.69
GACGGTATCCTACTGCTGACGTGCTAG | 2.68
GACGGTATCGGTTTCGGGAAGTGCTAG | 6.78
GTGAGTCCCACATCTCTGTCCGTGCTA | -0.285
TTGTAAATCTTTTTCCCTATGTGCTAG | 1.27
